Results pooled from the literature.
A part holds a random share of what one study measured.
Sequence of UniProt P42684 (whole entry, looked up): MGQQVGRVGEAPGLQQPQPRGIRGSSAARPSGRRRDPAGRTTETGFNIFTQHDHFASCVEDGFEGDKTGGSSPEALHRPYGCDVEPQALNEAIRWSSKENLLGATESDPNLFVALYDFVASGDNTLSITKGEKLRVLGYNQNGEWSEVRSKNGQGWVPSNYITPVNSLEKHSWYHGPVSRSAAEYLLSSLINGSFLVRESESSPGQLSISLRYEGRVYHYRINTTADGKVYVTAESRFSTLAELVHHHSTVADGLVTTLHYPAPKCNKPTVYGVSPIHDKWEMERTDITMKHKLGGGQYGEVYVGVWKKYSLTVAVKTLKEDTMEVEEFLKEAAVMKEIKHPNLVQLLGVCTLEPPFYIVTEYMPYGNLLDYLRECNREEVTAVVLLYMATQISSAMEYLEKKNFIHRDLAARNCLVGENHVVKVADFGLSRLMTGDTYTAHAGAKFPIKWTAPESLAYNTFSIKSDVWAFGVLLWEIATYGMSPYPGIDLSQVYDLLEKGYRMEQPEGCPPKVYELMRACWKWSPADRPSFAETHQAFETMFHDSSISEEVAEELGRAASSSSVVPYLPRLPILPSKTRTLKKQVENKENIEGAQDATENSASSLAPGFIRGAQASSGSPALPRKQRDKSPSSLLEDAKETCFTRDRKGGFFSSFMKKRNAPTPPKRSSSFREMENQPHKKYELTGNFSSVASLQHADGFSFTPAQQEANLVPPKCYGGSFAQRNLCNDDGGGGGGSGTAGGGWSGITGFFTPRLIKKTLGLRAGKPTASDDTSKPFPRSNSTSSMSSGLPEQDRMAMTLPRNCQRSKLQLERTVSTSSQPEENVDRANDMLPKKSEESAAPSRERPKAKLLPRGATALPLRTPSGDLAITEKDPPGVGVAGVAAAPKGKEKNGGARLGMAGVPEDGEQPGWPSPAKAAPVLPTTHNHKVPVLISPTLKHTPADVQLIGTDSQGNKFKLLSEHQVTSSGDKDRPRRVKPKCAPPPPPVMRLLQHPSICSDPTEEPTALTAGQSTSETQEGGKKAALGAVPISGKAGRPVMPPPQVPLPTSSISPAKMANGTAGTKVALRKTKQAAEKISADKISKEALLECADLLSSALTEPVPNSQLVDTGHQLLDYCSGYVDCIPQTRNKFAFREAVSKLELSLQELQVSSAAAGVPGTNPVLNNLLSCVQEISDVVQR
Sequence of UniProt Q9UL54 (whole entry, looked up): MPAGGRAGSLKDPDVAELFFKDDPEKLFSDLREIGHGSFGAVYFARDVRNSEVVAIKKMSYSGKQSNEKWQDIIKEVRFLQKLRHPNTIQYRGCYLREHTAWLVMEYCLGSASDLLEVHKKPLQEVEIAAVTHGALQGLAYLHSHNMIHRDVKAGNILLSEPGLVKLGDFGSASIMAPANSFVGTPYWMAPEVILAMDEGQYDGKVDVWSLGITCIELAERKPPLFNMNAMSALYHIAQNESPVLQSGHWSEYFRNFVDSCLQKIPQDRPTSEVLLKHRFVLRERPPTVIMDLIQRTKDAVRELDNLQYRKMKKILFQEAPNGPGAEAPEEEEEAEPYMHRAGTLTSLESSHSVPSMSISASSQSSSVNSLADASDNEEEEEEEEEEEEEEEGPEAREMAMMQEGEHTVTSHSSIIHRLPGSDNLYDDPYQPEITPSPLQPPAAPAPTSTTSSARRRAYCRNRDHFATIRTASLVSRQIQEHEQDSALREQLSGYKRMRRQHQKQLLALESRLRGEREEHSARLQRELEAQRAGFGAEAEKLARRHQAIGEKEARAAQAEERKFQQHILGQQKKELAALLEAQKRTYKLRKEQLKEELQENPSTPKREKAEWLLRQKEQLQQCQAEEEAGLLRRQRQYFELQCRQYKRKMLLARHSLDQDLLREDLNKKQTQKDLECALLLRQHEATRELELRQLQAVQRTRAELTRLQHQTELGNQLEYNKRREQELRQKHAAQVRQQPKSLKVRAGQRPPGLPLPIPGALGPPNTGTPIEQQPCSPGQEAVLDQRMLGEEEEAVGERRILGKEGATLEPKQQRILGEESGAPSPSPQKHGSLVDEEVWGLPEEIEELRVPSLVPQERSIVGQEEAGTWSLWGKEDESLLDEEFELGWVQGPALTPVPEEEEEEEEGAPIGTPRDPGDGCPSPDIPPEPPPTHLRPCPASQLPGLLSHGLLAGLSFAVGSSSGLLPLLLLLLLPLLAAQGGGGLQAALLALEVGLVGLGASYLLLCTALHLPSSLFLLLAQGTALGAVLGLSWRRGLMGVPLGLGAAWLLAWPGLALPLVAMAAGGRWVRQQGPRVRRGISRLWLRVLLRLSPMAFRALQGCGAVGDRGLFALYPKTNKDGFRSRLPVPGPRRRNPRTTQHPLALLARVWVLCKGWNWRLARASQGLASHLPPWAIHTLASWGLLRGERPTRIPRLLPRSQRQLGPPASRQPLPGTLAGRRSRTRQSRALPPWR
Sequence of UniProt P36507 (whole entry, looked up): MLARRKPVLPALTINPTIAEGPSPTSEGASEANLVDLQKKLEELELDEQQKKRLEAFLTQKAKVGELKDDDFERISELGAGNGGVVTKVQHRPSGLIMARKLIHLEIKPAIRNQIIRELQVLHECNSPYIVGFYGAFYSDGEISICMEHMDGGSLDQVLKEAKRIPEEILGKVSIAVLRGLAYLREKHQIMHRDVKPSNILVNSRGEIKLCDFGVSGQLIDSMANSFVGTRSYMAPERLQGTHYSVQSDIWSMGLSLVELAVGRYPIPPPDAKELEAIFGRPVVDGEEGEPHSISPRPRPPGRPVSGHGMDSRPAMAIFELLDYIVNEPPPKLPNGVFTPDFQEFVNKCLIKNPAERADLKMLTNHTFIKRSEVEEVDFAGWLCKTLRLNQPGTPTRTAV
Sequence of UniProt P36896 (whole entry, looked up): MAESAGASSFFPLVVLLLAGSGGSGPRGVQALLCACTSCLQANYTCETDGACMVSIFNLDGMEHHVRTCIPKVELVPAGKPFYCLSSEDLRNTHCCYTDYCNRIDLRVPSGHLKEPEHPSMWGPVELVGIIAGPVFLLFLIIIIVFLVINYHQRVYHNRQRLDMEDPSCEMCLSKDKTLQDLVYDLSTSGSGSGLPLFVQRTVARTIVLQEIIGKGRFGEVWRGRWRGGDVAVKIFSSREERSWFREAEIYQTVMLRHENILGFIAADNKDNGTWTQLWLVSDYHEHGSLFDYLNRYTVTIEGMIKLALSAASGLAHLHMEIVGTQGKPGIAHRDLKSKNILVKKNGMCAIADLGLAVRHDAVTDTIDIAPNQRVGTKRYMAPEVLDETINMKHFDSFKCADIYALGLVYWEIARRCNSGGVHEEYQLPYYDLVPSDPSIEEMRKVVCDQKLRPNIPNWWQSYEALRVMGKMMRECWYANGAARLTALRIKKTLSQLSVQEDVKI
Sequence of UniProt P29320 (whole entry, looked up): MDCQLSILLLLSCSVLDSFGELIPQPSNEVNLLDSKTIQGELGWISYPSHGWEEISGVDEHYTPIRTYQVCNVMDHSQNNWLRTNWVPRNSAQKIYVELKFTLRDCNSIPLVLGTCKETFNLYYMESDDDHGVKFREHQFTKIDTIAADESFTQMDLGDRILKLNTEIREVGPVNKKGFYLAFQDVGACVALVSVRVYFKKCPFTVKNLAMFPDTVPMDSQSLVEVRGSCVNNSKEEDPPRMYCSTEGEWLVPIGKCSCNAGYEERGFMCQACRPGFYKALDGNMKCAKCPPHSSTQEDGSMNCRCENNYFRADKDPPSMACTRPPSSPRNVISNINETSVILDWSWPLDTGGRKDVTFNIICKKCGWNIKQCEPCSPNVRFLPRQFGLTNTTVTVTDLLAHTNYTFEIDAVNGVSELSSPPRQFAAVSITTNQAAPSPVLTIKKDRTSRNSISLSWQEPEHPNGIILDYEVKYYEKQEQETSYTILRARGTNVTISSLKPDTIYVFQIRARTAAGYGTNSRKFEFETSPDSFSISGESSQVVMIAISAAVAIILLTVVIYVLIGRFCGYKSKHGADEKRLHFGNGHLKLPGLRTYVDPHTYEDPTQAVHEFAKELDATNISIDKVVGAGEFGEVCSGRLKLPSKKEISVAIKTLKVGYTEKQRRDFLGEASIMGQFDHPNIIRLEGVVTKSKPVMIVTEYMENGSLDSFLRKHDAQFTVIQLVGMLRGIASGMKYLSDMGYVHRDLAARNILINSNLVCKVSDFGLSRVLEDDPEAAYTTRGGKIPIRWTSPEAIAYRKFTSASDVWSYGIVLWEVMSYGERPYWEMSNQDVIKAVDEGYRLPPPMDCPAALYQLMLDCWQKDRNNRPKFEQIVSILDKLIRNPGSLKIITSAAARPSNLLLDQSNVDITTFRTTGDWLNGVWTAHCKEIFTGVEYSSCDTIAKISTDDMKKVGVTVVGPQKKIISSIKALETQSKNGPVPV
Sequence of UniProt Q92772 (whole entry, looked up): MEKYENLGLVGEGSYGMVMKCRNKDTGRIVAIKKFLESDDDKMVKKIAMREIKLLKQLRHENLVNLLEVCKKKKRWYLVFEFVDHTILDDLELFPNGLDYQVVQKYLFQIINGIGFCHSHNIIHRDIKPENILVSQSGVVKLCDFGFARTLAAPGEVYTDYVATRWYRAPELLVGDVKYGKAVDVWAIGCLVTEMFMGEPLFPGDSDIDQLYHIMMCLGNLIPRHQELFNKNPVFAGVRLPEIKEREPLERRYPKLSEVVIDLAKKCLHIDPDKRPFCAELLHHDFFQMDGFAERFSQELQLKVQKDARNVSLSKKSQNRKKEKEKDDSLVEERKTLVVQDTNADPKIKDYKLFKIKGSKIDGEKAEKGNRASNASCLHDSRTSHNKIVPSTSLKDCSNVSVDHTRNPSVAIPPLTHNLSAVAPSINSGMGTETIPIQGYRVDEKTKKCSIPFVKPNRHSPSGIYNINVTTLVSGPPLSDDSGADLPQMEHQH

Study 1
Organism: Sarcocystis neurona
Effect on: parasite growth
Concentration: 10 µM
Time: 96 h
Notes: secondary screen
Endpoint: inhibition
CCCNC(=O)NS(=O)(=O)c1ccc(Cl)cc1: -25.2%
COCC1=C(C(=O)OC(C)OC(=O)OC(C)C)N2C(=O)[C@@H](NC(=O)/C(=N\OC)c3csc(N)n3)[C@H]2SC1 (stereo partly drawn): -28.2%
CC[C@H](C)C(=O)O[C@H]1CCC=C2C=C[C@H](C)[C@H](CC[C@@H]3C[C@@H](O)CC(=O)O3)[C@H]21: -19.4%
CCN1CCC[C@H]1CNC(=O)c1cc(S(N)(=O)=O)ccc1OC: -5.5%
CN1[C@@H]2CC[C@H]1C[C@@H](OC(=O)c1c[nH]c3ccccc13)C2: -27.8%
CN(C)CCOC(C)(c1ccccc1)c1ccccn1 (stereo not drawn): -24%
CC1COc2c(N3CCN(C)CC3)c(F)cc3c(=O)c(C(=O)O)cn1c23 (stereo not drawn): -27.7%
Cc1ccc(C)c(OCCCC(C)(C)C(=O)O)c1: -15.6%
CNCCCN1c2ccccc2CCc2ccccc21: -23.9%
Cc1occc(=O)c1O: -23%
C[C@@H]1C[C@H]2[C@@H]3CCC4=CC(=O)C=C[C@]4(C)[C@@]3(F)[C@@H](O)C[C@]2(C)[C@@]1(O)C(=O)CO: -20.4%

Study 2
Compound: O=C(Nc1ccc(Oc2ccc(F)cc2)cc1)N1CCc2ncccc2[C@H]1c1ccc(F)cc1
Effect on: cell-free assay
Method: competition with immobilised ligand
Concentration: 1 µM
Endpoint: remaining binding
CDKL2 (Homo sapiens, UniProt Q92772): 77%
MYLK3 (Homo sapiens, UniProt Q32MK0): 80%
STK32B (Homo sapiens, UniProt Q9NY57): 72%
PIK3CA (Homo sapiens, UniProt P42336, I800L): 66%
HIPK4 (Homo sapiens, UniProt Q8NE63): 96%
PIP4K2C (Homo sapiens, UniProt Q8TBX8): 94%
WNK1 (Homo sapiens, UniProt Q9H4A3): 96%
KIT (Homo sapiens, UniProt P10721, V559D): 100%
MAP3K20 (Homo sapiens, UniProt Q9NYL2): 100%
MAK (Homo sapiens, UniProt P20794): 100%
EIF2AK1 (Homo sapiens, UniProt Q9BQI3): 100%
CHEK2 (Homo sapiens, UniProt O96017): 94%
BRSK2 (Homo sapiens, UniProt Q8IWQ3): 95%
TESK1 (Homo sapiens, UniProt Q15569): 100%
CDKL3 (Homo sapiens, UniProt Q8IVW4): 82%
TRPM6 (Homo sapiens, UniProt Q9BX84): 100%

Study 3
Cell line: A-375
Concentration: 100 µM
Time: 18 h
Endpoint: viability
C[N+](C)(C)C[C@H](O)CC(=O)[O-]: 91.9%
COc1cc2c(cc1OC)[C@H]1CC(=O)[C@H](CC(C)C)CN1CC2 (racemic): 77.5%
Nc1ccn([C@H]2CC[C@@H](CO)O2)c(=O)n1: 97.2%
COC(=O)c1ccc2c(c1)NC(=O)/C2=C(\Nc1ccc(N(C)C(=O)CN2CCN(C)CC2)cc1)c1ccccc1: 101%
CN(C)CCC=C1c2ccccc2CCc2ccccc21: 7.92%
Clc1ccccc1CN1CCc2sccc2C1: 43.3%

Study 4
Compound: COc1cc2ncnc(Nc3ccc(O)c(Br)c3)c2cc1OC
Effect on: enzyme activity
Action: inhibitor
Concentration: 0.5 µM
Baseline: control
Endpoint: remaining activity
GSK3B (Homo sapiens, UniProt P49841): 92%
NEK6 (Homo sapiens, UniProt Q9HC98): 100%
FRK (Homo sapiens, UniProt P42685): 74.7%
LCK (Homo sapiens, UniProt P06239): 48.9%
EPHA3 (Homo sapiens, UniProt P29320): 95.4%
MST1R (Homo sapiens, UniProt Q04912): 101%
ACVR1B (Homo sapiens, UniProt P36896): 105%
FGFR3 (Homo sapiens, UniProt P22607): 98.8%
CSNK1G2 (Homo sapiens, UniProt P78368): 96.4%
MAPKAPK2 (Homo sapiens, UniProt P49137): 97.7%
MAP3K14 (Homo sapiens, UniProt Q99558): 82.6%
MERTK (Homo sapiens, UniProt Q12866): 87.7%
MAP3K5 (Homo sapiens, UniProt Q99683): 98.6%
ULK2 (Homo sapiens, UniProt Q8IYT8): 104%
TBK1 (Homo sapiens, UniProt Q9UHD2): 84.7%
MAP2K2 (Homo sapiens, UniProt P36507): 86.2%
MAPK3 (Homo sapiens, UniProt P27361): 97%
GRK7 (Homo sapiens, UniProt Q8WTQ7): 96.4%
TAOK2 (Homo sapiens, UniProt Q9UL54): 95.8%
FGFR1 (Homo sapiens, UniProt P11362): 93.4%
TEK (Homo sapiens, UniProt Q02763): 93.8%
CSNK1G3 (Homo sapiens, UniProt Q9Y6M4): 101%
ABL2 (Homo sapiens, UniProt P42684): 58.4%
JAK3 (Homo sapiens, UniProt P52333): 100%

For quick reference, copied from above (study 1):
CN(C)CCOC(C)(c1ccccc1)c1ccccn1 (stereo not drawn): -24%
CCN1CCC[C@H]1CNC(=O)c1cc(S(N)(=O)=O)ccc1OC: -5.5%
CC[C@H](C)C(=O)O[C@H]1CCC=C2C=C[C@H](C)[C@H](CC[C@@H]3C[C@@H](O)CC(=O)O3)[C@H]21: -19.4%
COCC1=C(C(=O)OC(C)OC(=O)OC(C)C)N2C(=O)[C@@H](NC(=O)/C(=N\OC)c3csc(N)n3)[C@H]2SC1 (stereo partly drawn): -28.2%
CNCCCN1c2ccccc2CCc2ccccc21: -23.9%
CCCNC(=O)NS(=O)(=O)c1ccc(Cl)cc1: -25.2%
CC1COc2c(N3CCN(C)CC3)c(F)cc3c(=O)c(C(=O)O)cn1c23 (stereo not drawn): -27.7%
